Measurements from different studies.
A part holds a random share of what one study measured.

Series 1
Cell line: mouse MPNST tumor cells
Technique: high-content immunofluorescence imaging
Measured: nuclear SOX9
Concentration: 10 µM
Time: 12 h
Setting: mean of 2 replicates
Relative to: DMSO control
Direction: higher = more nuclear SOX9
SMILES	nuclear SOX9 intensity
O=c1cc(-c2ccc(O)c(O)c2)oc2cc(O)cc(O)c12	151 % of DMSO
N=C(N)NC(=O)c1cnn(-c2cccc3ncccc23)c1C1CC1	111 % of DMSO
Cc1cc(N2CCCCC2)nc2ccccc12	89.9 % of DMSO

Series 2
SMILES: COc1ccc(-c2c(Nc3ccccn3)[nH]c3c(C4=CCCCC4)c(-c4ccccc4)nn3c2=O)cc1
Host: human patients
Medium: plasma
assay	conditions	geometric mean concentration
measured: S-adenosylmethionine	150 mg once daily, 0 h	15.9 ng/mL
measured: methionine	100 mg once daily, 6 h	85600 ng/mL
measured: methionine	150 mg once daily, 8 h	116000 ng/mL

Further values, each from its own experiment
Compound	tested on	assay	conditions	how to read	measurement	value
CCOC(=O)[C@@H]1CSCC(=O)N[C@H](CC)C(=O)N(CC(C)C)CC(=O)N[C@H](CC(C)C)C(=O)N(C)[C@H](C)C(=O)N(C)[C@@H](C)C(=O)N[C@H](CC(C)C)C(=O)N(C)[C@H](C)C(=O)N[C@@H](CC(C)C)C(=O)N1C		PRP-column chromatography			log k' (60)	0.802
CC(C)C(=O)Nc1n[nH]c2cc(-c3cccc(NS(=O)(=O)C4CC4)c3)ccc12	sample BA colorectal tumour organoid		1 µM	relative to: DMSO	viability	105%
